Results collected from several papers.
Protocols differ between the studies behind these lines. ± gives the spread as reported.

Structure (SMILES) = CC[C@H](C)[C@H](NC(=O)[C@H](Cc1ccccc1)NC(=O)[C@H](CC(=O)O)NC(=O)[C@H](CCCCN)NC(=O)[C@H](C)NC(=O)[C@H](CCCCN)NC(=O)[C@H](CC(N)=O)NC(=O)[C@H](CC(C)C)NC(=O)[C@H](Cc1c[nH]c2ccccc12)NC(=O)[C@H](CCC(=O)O)NC(=O)[C@H](CCCCN)NC(=O)[C@@H](NC(=O)CNC(=O)[C@H](C)N)[C@@H](C)O)C(=O)N[C@@H](CCCCN)C(=O)N[C@@H](CCC(=O)O)C(=O)N[C@@H](CCCCN)C(=O)NCC(=O)N1CCC[C@H]1C(=O)NCC(=O)N[C@@H](CCSC)C(=O)N[C@@H](CC(C)C)C(=O)N[C@@H](CO)C(=O)N[C@@H](C)C(=O)N[C@@H](C)C(=O)N[C@@H](C)C(=O)N[C@@H](CC(N)=O)C(=O)N[C@@H](C)C(=O)N[C@@H](C)C(=O)N[C@@H](CC(C)C)C(=O)N[C@@H](CC(N)=O)C(=O)O; organism = Haemonchus contortus; test = larval development; test system = Kirby isolate; conditions = 6 days, 26 °C; IC50 = 52.1 ± 11.8 µM
Structure (SMILES) = CC[C@H](C)[C@H](NC(=O)[C@H](CC(C)C)NC(=O)CNC(=O)[C@H](Cc1c[nH]cn1)NC(=O)[C@@H](NC(=O)[C@H](Cc1ccccc1)NC(=O)[C@H](CC(N)=O)NC(=O)[C@H](Cc1c[nH]c2ccccc12)NC(=O)[C@@H](NC(=O)[C@H](Cc1c[nH]cn1)NC(=O)CNC(=O)[C@H](Cc1c[nH]c2ccccc12)NC(=O)[C@@H](N)CC(C)C)[C@@H](C)CC)C(C)C)C(N)=O; organism = Herpes simplex virus 1; test = virus inactivation, plaque reduction; test system = Vero, F; conditions = 37 °C; IC50 = 1.5 µg/mL
Structure (SMILES) = CC[C@H](C)[C@H](NC(=O)CNC(=O)[C@H](CC(C)C)NC(=O)CNC(=O)[C@H](CCCCN)NC(=O)[C@H](CCC(=O)O)NC(=O)[C@H](CCCCN)NC(=O)[C@@H](NC(=O)[C@H](Cc1ccccc1)NC(=O)[C@H](CC(=O)O)NC(=O)[C@H](CCCCN)NC(=O)[C@H](C)NC(=O)[C@H](CCCCN)NC(=O)[C@H](CC(N)=O)NC(=O)[C@H](CC(C)C)NC(=O)[C@H](Cc1c[nH]c2ccccc12)NC(=O)[C@H](CC(=O)O)NC(=O)[C@H](CCCCN)NC(=O)[C@@H](NC(=O)CNC(=O)[C@H](C)N)[C@@H](C)O)[C@@H](C)CC)C(=O)N[C@@H](CC(C)C)C(=O)N[C@@H](CO)C(=O)N[C@@H](C)C(=O)N[C@@H](C)C(=O)N[C@@H](C)C(=O)N[C@@H](CC(N)=O)C(=O)N[C@@H](C)C(=O)N[C@@H](C)C(=O)N[C@H](C(=O)N[C@@H](CC(N)=O)C(=O)O)[C@@H](C)CC; organism = Haemonchus contortus; test = larval development; test system = Kirby isolate; conditions = 6 days, 26 °C; IC50 = 31.6 ± 7.6 µM
Structure (SMILES) = O=P(O)(OCc1ccc(-c2ccccc2)cc1)Oc1c2c(c(OP(=O)(O)OCc3ccc(-c4ccccc4)cc3)c3c1C1CC3c3cc4c(cc31)C1CC4c3ccccc31)C1CC2c2cc3c(cc21)C1CC3c2ccccc21; organism = human respiratory syncytial virus; test = viral infection, GFP reporter, flow cytometry; test system = A549; conditions = virus pretreated 30 min; IC50 = 9.7 µM
Structure (SMILES) = CCC(=O)Nc1cc(Nc2cc(NC3CC3)n3ncc(C#N)c3n2)ccc1N(C)CCNC; organism = murine hepatitis virus; test = viral replication, nanoluciferase reporter; test system = DBT; conditions = 10 h; IC50 = 0.0631 µM
Structure (SMILES) = O=C(C1CCN(c2nnnn2-c2ccccc2)CC1)N1CCCc2ccccc21; organism = Plasmodium falciparum; test system = erythrocytes, Dd2, cytb variant; IC50 = 0.707 µM
Structure (SMILES) = O=P(O)(OCc1cccc2ccccc12)Oc1c2c(c(OP(=O)(O)OCc3cccc4ccccc34)c3c1C1CC3c3cc4c(cc31)C1CC4c3ccccc31)C1CC2c2cc3c(cc21)C1CC3c2ccccc21; organism = human respiratory syncytial virus; test = viral infection, GFP reporter, flow cytometry; test system = A549; conditions = virus pretreated 30 min; IC50 = 6 µM
Structure (SMILES) = CC(=O)Nc1cc(Nc2cc(NC3CC3)n3ncc(C#N)c3n2)ccc1N(C)Cc1ccccc1; organism = murine hepatitis virus; test = viral replication, nanoluciferase reporter; test system = DBT; conditions = 10 h; IC50 = 6.31 µM
Structure (SMILES) = CSC[C@H]1CN(Cc2c[nH]c3c(N)ncnc23)C[C@@H]1O; organism = Campylobacter jejuni; test = cell growth; conditions = 16.4 h; IC50 = 4.2 ± 1.3 µM
Structure (SMILES) = CC(=O)CCC1C(=O)NC(C(C)C)C(=O)NC(Cc2cc(O)cc(F)c2)C(=O)N2CCCC(N2)C(=O)OC(C(C)=CC=CC(=O)N2CCCCO2)CC=CC=CC(O)C(C)C1O (stereo not shown); organism = hepatitis B virus; test = viral replication, item: HBV DNA; test system = HBV stable cell line; IC50 = 0.95 µM
Structure (SMILES) = CCNCCN(C)c1ccc(Nc2cc(NC3CC3)n3ncc(C#N)c3n2)cc1NC(=O)CC; organism = murine hepatitis virus; test = viral replication, nanoluciferase reporter; test system = DBT; conditions = 10 h; IC50 = 0.251 µM
Structure (SMILES) = CC[C@H](C)[C@H](NC(=O)[C@H](CC(C)C)NC(=O)[C@H](Cc1c[nH]cn1)NC(=O)[C@H](Cc1c[nH]cn1)NC(=O)[C@@H](NC(=O)[C@H](Cc1ccccc1)NC(=O)[C@H](CC(N)=O)NC(=O)[C@H](Cc1c[nH]c2ccccc12)NC(=O)[C@@H](NC(=O)[C@H](Cc1c[nH]cn1)NC(=O)[C@H](Cc1c[nH]cn1)NC(=O)[C@H](Cc1c[nH]c2ccccc12)NC(=O)[C@@H](N)CC(C)C)[C@@H](C)CC)C(C)C)C(N)=O; organism = Herpes simplex virus 1; test = viral entry, plaque reduction; test system = Vero, F; conditions = 37 °C; IC50 = 4.37 µg/mL
Structure (SMILES) = COc1cc(/C=C/c2ccc(OC)c(O)c2)cc(OC)c1; organism = Streptococcus mutans; test = biofilm formation, crystal violet; IC50 = 122 µM
Structure (SMILES) = CC(=O)N[C@H](C(=O)N[C@@H](CCCCNC(=O)CCC(=O)OC[C@@H]1O[C@H](n2ccc(N)nc2=O)CS1)C(=O)N[C@H](C(=O)N[C@@H](CCCCNC(=O)CCC(=O)OC[C@@H]1O[C@H](n2ccc(N)nc2=O)CS1)C(=O)N[C@H](C(=O)N[C@@H](CCCCNC(=O)CCC(=O)OC[C@@H]1O[C@H](n2ccc(N)nc2=O)CS1)C(=O)N[C@@H](CCC(=O)O)C(=O)N[C@@H](CCC(=O)O)C(=O)N[C@@H](CCC(=O)O)C(N)=O)C(C)C)C(C)C)C(C)C; organism = hepatitis B virus; test = HBV DNA release, qPCR; test system = HepAD38, culture supernatant; IC50 = 0.08 µM
Structure (SMILES) = CNCCN(C)c1ccc(Nc2cc(NC3CC3)n3ncc(C#N)c3n2)cc1NC(C)=O; organism = murine hepatitis virus; test = viral replication, nanoluciferase reporter; test system = DBT; conditions = 10 h; IC50 = 0.00251 µM
Structure (SMILES) = CC[C@H](C)[C@H](NC(=O)[C@H](CC(C)C)NC(=O)CNC(=O)[C@H](Cc1c[nH]cn1)NC(=O)[C@@H](NC(=O)[C@H](Cc1ccccc1)NC(=O)[C@H](CC(N)=O)NC(=O)[C@H](Cc1c[nH]c2ccccc12)NC(=O)[C@@H](NC(=O)[C@H](Cc1c[nH]cn1)NC(=O)[C@H](Cc1c[nH]cn1)NC(=O)[C@H](Cc1c[nH]c2ccccc12)NC(=O)[C@@H](N)CC(C)C)[C@@H](C)CC)C(C)C)C(N)=O; organism = Herpes simplex virus 1; test = viral attachment, plaque reduction; test system = Vero, F; conditions = 1 h, 4 °C; IC50 = 0.86 µg/mL
Structure (SMILES) = C#CCCCOP(=O)(O)Oc1c2c(c(OP(=O)(O)OCCCC#C)c3c1C1CC3c3cc4c(cc31)C1CC4c3ccccc31)C1CC2c2cc3c(cc21)C1CC3c2ccccc21; organism = human respiratory syncytial virus; test = viral infection, GFP reporter, flow cytometry; test system = A549; conditions = virus pretreated 30 min; IC50 = 18.9 µM
Structure (SMILES) = CC1N=C(CCCCCCCCCCC2=CC(CCCCCCCCCCC3=NC(C)C(O)CC3)C3CCCN3C2)CCC1O (stereo not shown); organism = Mycobacterium intracellulare; test = microbial growth, resazurin; test system = ATCC23068; IC50 = 9.72 µg/mL
Structure (SMILES) = CC[C@H](C)[C@H](NC(=O)[C@H](Cc1ccccc1)NC(=O)[C@H](CC(=O)O)NC(=O)[C@H](CCCCN)NC(=O)[C@H](C)NC(=O)[C@H](CCCCN)NC(=O)[C@H](CC(N)=O)NC(=O)[C@H](CC(C)C)NC(=O)[C@H](Cc1c[nH]c2ccccc12)NC(=O)[C@H](CCC(=O)O)NC(=O)[C@H](CCCCN)NC(=O)[C@@H](NC(=O)CNC(=O)[C@H](C)N)[C@@H](C)O)C(=O)N[C@@H](CCCCN)C(=O)N[C@@H](CCC(=O)O)C(=O)N[C@@H](CCCCN)C(=O)NCC(=O)N[C@@H](CC(C)C)C(=O)N[C@@H](CCC(=O)O)C(=O)N[C@@H](CCSC)C(=O)N[C@@H](CC(C)C)C(=O)N[C@@H](CO)C(=O)N[C@@H](C)C(=O)N[C@@H](C)C(=O)N[C@@H](C)C(=O)N[C@@H](CC(N)=O)C(=O)N[C@@H](C)C(=O)N[C@@H](C)C(=O)N[C@@H](CC(C)C)C(=O)N[C@@H](CC(N)=O)C(=O)O; organism = Haemonchus contortus; test = larval development; test system = Kirby isolate; conditions = 6 days, 26 °C; IC50 = > 100 µM
Structure (SMILES) = CC(C)C[C@H](NC(=O)CNC(=O)c1cc(Cl)ccc1Cl)B(O)O; organism = Babesia divergens; test = parasite growth; test system = bovine erythrocyte culture; conditions = 48 h, starting parasitemia 2%; IC50 = 0.35 ± 0.035 µM
Structure (SMILES) = CC(=O)CCC1C(=O)NC(C(C)C)C(=O)NC(Cc2cccc(O)c2)C(=O)N2CCCC(N2)C(=O)OC(C(C)=CC=CC(=O)N2CCCCO2)CC=CC=CC(O)C(C)C1O (stereo not shown); organism = hepatitis B virus; test = viral replication, item: HBsAg; test system = HBV stable cell line; IC50 = 0.6 µM
Structure (SMILES) = CCc1ccc(COP(=O)(O)Oc2c3c(c(OP(=O)(O)OCc4ccc(CC)cc4)c4c2C2CC4c4cc5c(cc42)C2CC5c4ccccc42)C2CC3c3cc4c(cc32)C2CC4c3ccccc32)cc1; organism = human respiratory syncytial virus; test = viral infection, GFP reporter, flow cytometry; test system = A549; conditions = virus pretreated 30 min; IC50 = 6.1 µM

Excerpt of the above:
Structure (SMILES) = O=P(O)(OCc1cccc2ccccc12)Oc1c2c(c(OP(=O)(O)OCc3cccc4ccccc34)c3c1C1CC3c3cc4c(cc31)C1CC4c3ccccc31)C1CC2c2cc3c(cc21)C1CC3c2ccccc21; organism = human respiratory syncytial virus; test = viral infection, GFP reporter, flow cytometry; test system = A549; conditions = virus pretreated 30 min; IC50 = 6 µM
Structure (SMILES) = CC(=O)Nc1cc(Nc2cc(NC3CC3)n3ncc(C#N)c3n2)ccc1N(C)Cc1ccccc1; organism = murine hepatitis virus; test = viral replication, nanoluciferase reporter; test system = DBT; conditions = 10 h; IC50 = 6.31 µM
